Measurements gathered from unrelated publications.
Compare with care: the assays were run in different laboratories. “And” joins repeats or separate records; there may be more than shown. Numbers after ± are the reported error.

SMILES	assay	system	conditions	how to read	measurement	value
Oc1ccc(CSCc2ccc(O)cc2)cc1		ICR mice male	oral, 3000 mg/kg, day 8, acute toxicity		body weight	35.5 ± 1.01 g
CCc1ccc(CC/C=C/c2ccc3c(c2)C(=O)CC3)cc1		Sprague-Dawley rat, female	oral, 450 mg/kg/day, 14 days		HDW	23.1 g/L
O=C(Nc1ccccc1)C1CCN(C(=O)Oc2cccnc2)CC1	item: ear and labyrinth disorders	healthy women	oral, 60 mg, 7 days		subjects with adverse event	0%
COc1cc2c(Oc3ccc4[nH]c(C)cc4c3F)ccnc2cc1OCC1(N)CC1		paediatric recurrent refractory sarcoma	8 mg		Neutropenia incidence	0%
CN1CC[C@@H](c2c(O)cc(O)c3c(=O)cc(-c4ccc(C(F)(F)F)cc4Cl)oc23)[C@@H]1CO	item: Diarrhea	AML	oral, 150 mg, intermittent dosing		patients with adverse event	25%
CO[C@H]1C[C@@H]2CC[C@@H](C)[C@@](O)(O2)C(=O)C(=O)N2CCCC[C@H]2C(=O)O[C@H]([C@H](C)C[C@@H]2CC[C@@H](OC(=O)NCCOCCOCCOCCOCCOCCOCCOCCOCCC(=O)N3CCc4cc(Cn5nc(-c6ccc7oc(N)nc7c6)c6c(N)ncnc65)ccc4C3)[C@H](OC)C2)C[C@@H](O)[C@H](C)/C=C(\C)[C@@H](O)[C@@H](OC)C(=O)[C@H](C)C[C@H](C)/C=C/C=C/C=C/1C	phase 1 dose escalation, item: fatigue	advanced solid tumour patients	intravenous, 16 mg weekly, any grade		dose-reducing adverse events	25%
COc1cccc(Oc2ccccc2NC(=O)CNC(=O)c2cccc3ccccc23)c1		esterase-deficient SCID mice, male	oral, 15 mg/kg/day, 14 days, toxicity study		albumin/globulin ratio	1.3 and 1.4
C[C@]1(CO)Cc2ncn(-c3ccc(C#N)c(Cl)c3)c2C(=O)O1	item: abnormal skin odour	human	3 mg multiple doses, fasted		subjects with drug-related TEAE	11.1%
Cc1ccc(F)c2cc(C(=O)N[C@@H]3CCC[C@H](N4CC[C@H](N(C)S(C)(=O)=O)C4)C3)[nH]c12		CD1 mouse	intravenous, 1 mg/kg, 1 h		plasma concentration	0.0662 µg/mL
O=C(O)C(O)(c1cccs1)c1cccs1		human, CSF	2 mg once daily, 5 days, median		dose-normalised Cmax	0.017 (ng/mL)/mg
[2H]C([2H])([18F])[C@]([2H])(N)C(=O)O	PET	athymic nude mice, U-87 MG	dose not given, 15 min post-injection	relative to: tumour over muscle	tumour-to-muscle ratio	1.07 ± 0.18
COc1ccc(CCC2CCCC(CCc3ccc(OC)cc3)N2C[C@@H](O)CO)cc1.Cl (stereo in doubt)		rabbit Purkinje fibres	0.3 µM, cycle length 0.5 s	relative to: baseline	Vmax change	-2.5 ± 4.5%
CC(C)C[C@H](NC(=O)[C@H](C)NC(=O)[C@@H](NC(=O)[C@H](CCCNC(=N)N)NC(=O)[C@H](CC(C)C)NC(=O)[C@H](Cc1c[nH]c2ccccc12)NC(=O)[C@@H]1CCCN1C(=O)[C@@H](N)CCCCN)C(C)C)C(=O)N[C@@H](CS)C(=O)N1CCC[C@H]1C(=O)NCC(=O)O		sheep red blood cells	16 µM, 1 h, 37 °C		hemolysis	0.64% and 0.35% and 0.23%

Some of these lines once more:
SMILES	assay	system	conditions	how to read	measurement	value
Oc1ccc(CSCc2ccc(O)cc2)cc1		ICR mice male	oral, 3000 mg/kg, day 8, acute toxicity		body weight	35.5 ± 1.01 g
